Measurements gathered from unrelated publications.
Numbered parts are unrelated; each lists some results of a single study. Several values in a cell are separate wells, animals, samples, runs or records. Substitutions count along the parent as printed.
Chain of UniProt Q16513 (whole entry, looked up): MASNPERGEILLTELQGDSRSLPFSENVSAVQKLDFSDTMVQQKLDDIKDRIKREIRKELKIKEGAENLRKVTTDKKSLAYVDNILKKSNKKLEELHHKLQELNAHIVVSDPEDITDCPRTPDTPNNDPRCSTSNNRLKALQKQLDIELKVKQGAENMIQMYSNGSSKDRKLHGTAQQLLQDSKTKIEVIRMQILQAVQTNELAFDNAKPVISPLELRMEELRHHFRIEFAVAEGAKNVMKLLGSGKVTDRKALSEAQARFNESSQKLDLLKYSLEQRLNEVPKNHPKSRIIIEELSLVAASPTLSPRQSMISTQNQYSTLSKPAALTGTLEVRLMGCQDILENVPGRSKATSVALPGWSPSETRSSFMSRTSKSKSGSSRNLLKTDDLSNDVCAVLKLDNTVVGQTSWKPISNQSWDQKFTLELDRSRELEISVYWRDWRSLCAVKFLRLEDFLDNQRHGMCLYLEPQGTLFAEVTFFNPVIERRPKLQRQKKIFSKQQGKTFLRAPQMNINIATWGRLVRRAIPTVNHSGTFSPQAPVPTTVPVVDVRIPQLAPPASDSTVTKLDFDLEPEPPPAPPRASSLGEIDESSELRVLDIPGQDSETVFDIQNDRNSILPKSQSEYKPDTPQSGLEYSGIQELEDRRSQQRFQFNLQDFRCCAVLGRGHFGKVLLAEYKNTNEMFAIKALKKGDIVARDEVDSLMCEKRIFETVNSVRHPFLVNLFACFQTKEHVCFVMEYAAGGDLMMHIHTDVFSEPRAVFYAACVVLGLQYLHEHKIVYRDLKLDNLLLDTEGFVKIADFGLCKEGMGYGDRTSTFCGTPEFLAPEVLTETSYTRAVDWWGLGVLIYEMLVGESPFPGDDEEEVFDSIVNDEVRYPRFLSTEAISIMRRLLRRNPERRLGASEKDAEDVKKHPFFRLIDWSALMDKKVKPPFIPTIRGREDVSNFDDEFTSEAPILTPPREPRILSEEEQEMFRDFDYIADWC
Chain of UniProt Q9UBS0 (whole entry, looked up): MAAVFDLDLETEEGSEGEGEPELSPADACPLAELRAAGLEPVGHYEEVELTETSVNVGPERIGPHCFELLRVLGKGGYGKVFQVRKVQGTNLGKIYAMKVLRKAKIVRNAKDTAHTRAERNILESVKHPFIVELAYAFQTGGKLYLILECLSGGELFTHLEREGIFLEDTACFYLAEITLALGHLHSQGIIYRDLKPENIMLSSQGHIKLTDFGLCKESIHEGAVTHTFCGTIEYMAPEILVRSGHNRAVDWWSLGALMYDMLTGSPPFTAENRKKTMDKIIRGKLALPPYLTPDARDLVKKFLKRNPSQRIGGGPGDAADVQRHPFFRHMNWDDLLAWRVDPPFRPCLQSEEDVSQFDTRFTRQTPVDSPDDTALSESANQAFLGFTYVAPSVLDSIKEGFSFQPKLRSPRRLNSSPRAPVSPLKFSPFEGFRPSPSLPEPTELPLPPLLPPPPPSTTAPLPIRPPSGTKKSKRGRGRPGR

Study 1
Target: CCNA1, cyclin fold, Cln2 fusion (human)
Method: yeast growth competition, sequencing
Matrix: yeast
Setting: strong parent motif
Reference: not given
Direction: higher = stronger binding
Endpoint: normalised enrichment score
Starting sequence: viral docking peptide; YKVKRRLVFGADD; partner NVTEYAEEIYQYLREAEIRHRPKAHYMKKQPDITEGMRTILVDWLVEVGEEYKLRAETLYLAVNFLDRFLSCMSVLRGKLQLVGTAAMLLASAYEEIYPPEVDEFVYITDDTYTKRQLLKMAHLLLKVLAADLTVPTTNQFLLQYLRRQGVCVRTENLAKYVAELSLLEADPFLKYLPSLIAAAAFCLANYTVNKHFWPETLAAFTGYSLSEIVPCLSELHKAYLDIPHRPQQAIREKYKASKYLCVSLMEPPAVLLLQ
R5V: 0.854
V8W: 0.395
F9Q: 0.334
K4M: -0.588
R6Y: 0.171
K2C: 1.05
R5P: -0.0526
G10T: 1.17

Study 2
Target: 5-hydroxytryptamine receptor 2A (HTR2A, Homo sapiens, UniProt P28223)
Chain of UniProt P28223 (whole entry, looked up): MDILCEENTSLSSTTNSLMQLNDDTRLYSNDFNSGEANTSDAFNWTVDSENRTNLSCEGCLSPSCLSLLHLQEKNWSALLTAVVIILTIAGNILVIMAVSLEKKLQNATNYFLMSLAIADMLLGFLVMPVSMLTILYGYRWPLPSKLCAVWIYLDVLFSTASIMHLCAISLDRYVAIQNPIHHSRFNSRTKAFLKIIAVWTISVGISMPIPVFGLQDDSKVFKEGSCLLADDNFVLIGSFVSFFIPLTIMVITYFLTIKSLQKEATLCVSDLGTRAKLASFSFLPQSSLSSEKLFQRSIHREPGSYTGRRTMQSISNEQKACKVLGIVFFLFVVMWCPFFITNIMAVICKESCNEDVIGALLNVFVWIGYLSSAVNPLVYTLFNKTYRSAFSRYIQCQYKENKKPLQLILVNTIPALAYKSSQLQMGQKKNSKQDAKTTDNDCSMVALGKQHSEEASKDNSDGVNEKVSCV
Observed: ligand displacement
Concentration: 10 µM
Endpoint: inhibition
O=C(Nc1cccnn1)N1CC(CC=Cc2cncc(Oc3ccc(C(F)(F)F)cn3)n2)C1: -3.55%
CC1CCN(c2ccnc(NCc3cn(C)cn3)n2)CC1: 33.8%
O=c1nc(-c2ccccn2)sc2ccccc12: -11.2%
CC1=C(C#N)[C@@H](c2ccc3[nH]nc(C)c3c2)C(C#N)=C(c2ccc(Cl)cc2)N1: 5.76%
O=C(NCc1ncc(C(F)(F)F)cc1Cl)c1ccc2c(c1)C1(CCS(=O)(=O)CC1)[C@@H](C1CC1)N2S(=O)(=O)c1ccc(F)cc1: 5.01%
Cc1cc(C)c(-n2ccn3nc(-c4cccnc4)cc23)cc1NC(=O)c1cc(C#N)cc(S(F)(F)(F)(F)F)c1: -4.7%
O=C(NCCCC1CCCCC1)c1ccc(CNC(=O)c2cnn(-c3ccccc3)c2C(F)(F)F)cc1: 8.57%
O=C(O)[C@H]1[C@H](Cn2nnc3ccccc3c2=O)CC[C@@H]1C(=O)c1ccc(OCCC2CCOCC2)cc1: 16.2%
CNCc1ccccc1-c1csc([C@@H](C)Nc2nc(C)nc3cc(OC)c(OC)cc23)c1: 98.5%
CC(=O)c1c(NS(C)(=O)=O)c2cc(-c3ccc(Cl)cc3)c(-c3ccc(Cl)cc3Cl)nc2n(C)c1=O: 78.8%
N#CN1CC[C@H](C(=O)Nc2nc3c(s2)CN(C(=O)CN=[N+]=[N-])CC3)C1: 30%
Cc1c[nH]c2nccc(Oc3c(F)cc(Nc4cc(Cl)nc(N)n4)cc3F)c12: -13.2%
CN([C@@H]1CCc2c(CC(=O)O)c3cc(S(C)(=O)=O)ccc3n2C1)S(=O)(=O)c1ccc(F)cc1: 7.27%

Other studies, line by line
C[C@]12Cc3c[nH]nc3C[C@@H]1CC[C@@H]1[C@@H]2CC[C@@]2(C)[C@H]1CC[C@]2(C)O  inhibition (Sarcocystis neurona; parasite growth; 10 µM, secondary screen): 4.5%
CC(C)(C)c1cc(C=C(C#N)C#N)cc(Br)c1O  remaining activity (Serine/threonine-protein kinase N2 (PKN2, Homo sapiens, UniProt Q16513); enzyme activity, inhibitor; 0.5 µM): 64.3%
CC[C@@H](C)c1nc2cc(Nc3ccnc4ccc(S(=O)(=O)C(C)C)cc34)ccc2s1.Cl  survival (L929 RIPK3-/- reexpressing RIPK3 K51A/R69H; CCK-8; 1.563 µM): 88.9% and 88.7% and 98.1% and 93.7% and 96.7%
CCOC(=O)C1(c2ccccc2)CCN(CCC(C#N)(c2ccccc2)c2ccccc2)CC1  inhibition (Sarcocystis neurona; parasite growth; 10 µM, secondary screen): -2.3%
O=C1NC(=O)c2c1c1c3ccccc3n3c1c1c2c2ccccc2n1[C@H]1CC[C@@H]3O1  remaining activity (Ribosomal protein S6 kinase beta-2 (RPS6KB2, Homo sapiens, UniProt Q9UBS0); enzyme activity, inhibitor; 0.5 µM; reference: control): 35%

For quick reference, copied from above (study 2):
CC(=O)c1c(NS(C)(=O)=O)c2cc(-c3ccc(Cl)cc3)c(-c3ccc(Cl)cc3Cl)nc2n(C)c1=O: 78.8%
N#CN1CC[C@H](C(=O)Nc2nc3c(s2)CN(C(=O)CN=[N+]=[N-])CC3)C1: 30%
